Experimental data from different studies.
Protocols differ between the studies behind these lines.

Compound	test	test system	conditions	quantity	result
Cc1cc(NC2CCN(C(=O)OC3CCN(C(=O)/C=C/CN(C)C)C3)CC2)n2ncc(C(C)C)c2n1 (stereo not shown)		patients with advanced solid tumours	dose not given, QD arm, grade 3 or higher	patients with Hypotension	2%
FC(F)(F)c1ccc(CNc2ccc(Cc3c[nH]c4ncc(Cl)cc34)cn2)cn1	refers to: blood alkaline phosphatase increased	non-TGCT solid tumour patients	oral, 1000 mg/day, all grades	patients with treatment-related adverse event	2%
CC(C)C[C@H](NC(=O)CNC(=O)c1cc(Cl)ccc1Cl)B(O)O	refers to: Dyspnoea, all grades	newly diagnosed multiple myeloma patients	oral, dose not given, maintenance phase, new onset, cycle 17 or later	patients with adverse event	17%
NC(=O)N1c2ccccc2C=Cc2ccccc21		male patients	oral, dose not given, on-treatment adverse events	patients with feces hard	7%
COc1ccc([C@@H](O)c2cc(-c3ncnc4cc(N5CCOCC5)ccc34)c(F)cc2Cl)nn1	refers to: Asthenia	locally advanced rectal cancer patients	dose not given, all dose groups, together with: capecitabine plus radiotherapy	patients with TEAE	21%
CNC(=O)c1ccc(-c2cnc3ncc(Cc4ccc5ncccc5c4)n3n2)cc1F	refers to: Vomiting	cancer patients	oral, 600 mg twice daily, all expansion cohorts, grade 3-4	patients with adverse event	3%
CNC(=O)c1cc(Oc2ccc(NC(=O)Nc3cc(C(C)(C)C)nn3-c3ccc4ncccc4c3)c(F)c2)ccn1		patients	oral, dose not given, cycles 1 and 2, High AUC subgroup	patients with visual abnormalities	22%
COc1cc2nccc(Oc3ccc(NC(=O)c4cc5c(n(-c6ccccc6)c4=O)CCCC5=O)nc3)c2cc1OC		patients with relapsed/refractory AML	oral, 6 mg once daily	TEAEs, drug-related, patients with	33.3%
Cc1cc(-c2nnc(N)nc2-c2ccc(F)cc2)cc(Cl)n1	refers to: Colitis	IO-naive colorectal cancer patients	oral, dose not given, treatment-related, grade 1	patients with immune-mediated AE	0%
COc1cc(Nc2ncc3c(n2)-c2ccc(Cl)cc2C(c2c(F)cccc2OC)=NC3)ccc1C(=O)O		cancer patients	oral, dose not given, all grades any attribution, together with: pembrolizumab	patients with increased INR	13%
C[C@@H](Nc1cc(F)cc(F)c1)c1cc(C(=O)N(C)C)cc2c(=O)cc(N3CCOCC3)oc12	CTCAE v4, refers to: muscular weakness	patients with advanced solid tumours	oral, dose not given, phase I dose expansion	patients with related SAE	0%
CCOc1c([C@H](C)n2nc(C)c3c(N)ncnc32)cc(Cl)c(F)c1[C@@H]1CNC(=O)C1	refers to: QRS > 110 ms	previously treated B-cell malignancy	oral, 20 mg once daily, baseline QRS ≤100 ms	patients with high heart rate	3.6%
O=C(Nc1nc2cccc(-c3ccc(CN4CCS(=O)(=O)CC4)cc3)n2n1)C1CC1		rheumatoid arthritis patients	oral, 100 mg twice daily, 4 weeks, TEAE regardless of relatedness	patients with increased blood triglycerides	0%

Repeated from above:
Compound	test	test system	conditions	quantity	result
FC(F)(F)c1ccc(CNc2ccc(Cc3c[nH]c4ncc(Cl)cc34)cn2)cn1	refers to: blood alkaline phosphatase increased	non-TGCT solid tumour patients	oral, 1000 mg/day, all grades	patients with treatment-related adverse event	2%
